Assay results of several laboratories.
Numbered parts are unrelated; each lists some results of a single study. Positions count from the first letter of the parent shown.

Set 1
Substance: PhoQ, residues 284 288 289 292 302 303 SVTLVV
Method: Sort-seq
Refers to: YFP reporter
Medium: E. coli
Setting: PhoQ-PhoP variant library
Added: 10 µM Mg2+
Reference: high Mg2+ state
Direction: higher = stronger signaling
The fold induction was 11.4 (PhoP, residues 12 14 15 18 19 LHHYF (Escherichia coli, UniProt P23836)).
For PhoP, residues 12 14 15 18 19 NFFVT (Escherichia coli, UniProt P23836): fold induction read 12.8.
PhoP, residues 12 14 15 18 19 VGHWL (Escherichia coli, UniProt P23836) — fold induction: 2.44.

Set 2
Target: CCNE1, cyclin fold, Cln2 fusion (human)
Method: yeast growth competition, sequencing
Medium: yeast
Setting: strong parent motif
Reference: not given
Direction: higher = stronger binding
Starting sequence: PKN2 docking peptide (human); VSAVRKLDFSDTM; partner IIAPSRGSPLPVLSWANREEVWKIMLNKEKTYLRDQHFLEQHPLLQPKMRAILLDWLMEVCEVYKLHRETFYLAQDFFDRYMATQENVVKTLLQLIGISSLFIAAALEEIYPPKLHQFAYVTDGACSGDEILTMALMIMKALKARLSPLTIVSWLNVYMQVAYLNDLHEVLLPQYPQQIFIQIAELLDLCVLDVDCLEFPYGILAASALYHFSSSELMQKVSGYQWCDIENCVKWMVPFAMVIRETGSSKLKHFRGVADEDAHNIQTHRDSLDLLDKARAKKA
`T12Y`: “normalised enrichment score” 5.68.
Under “normalised enrichment score”, `S2Q` is recorded as 4.85.
`D11G`: “normalised enrichment score” 5.23.
`S2K`: “normalised enrichment score” 6.
`S2G` — result for “normalised enrichment score”: 5.8.
Under “normalised enrichment score”, `D11Q` is recorded as 4.87.
Under “normalised enrichment score”, `R5I` is recorded as 0.753.
`F9N`: “normalised enrichment score” -0.124.
Under “normalised enrichment score”, `S10Q` is recorded as 5.26.
`K6P`: “normalised enrichment score” 0.283.
For `D8N`, “normalised enrichment score” read 4.97.

Set 3
Target: ABI1, truncated, D143A, DHFR fusion (Arabidopsis thaliana)
Method: DHFR PCA, deep sequencing
Medium: yeast
Setting: methotrexate growth selection, single substitutions
Added: (+)-ABA 710 µM
Reference: wild-type fitted maximum
Direction: higher = stronger binding
Starting sequence: PYL1, truncated, DHFR fusion (Arabidopsis thaliana); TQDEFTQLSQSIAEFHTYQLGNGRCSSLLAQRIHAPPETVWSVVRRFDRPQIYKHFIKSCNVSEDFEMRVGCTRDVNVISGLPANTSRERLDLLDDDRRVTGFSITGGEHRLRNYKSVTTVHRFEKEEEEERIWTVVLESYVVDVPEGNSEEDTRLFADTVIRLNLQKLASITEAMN; partner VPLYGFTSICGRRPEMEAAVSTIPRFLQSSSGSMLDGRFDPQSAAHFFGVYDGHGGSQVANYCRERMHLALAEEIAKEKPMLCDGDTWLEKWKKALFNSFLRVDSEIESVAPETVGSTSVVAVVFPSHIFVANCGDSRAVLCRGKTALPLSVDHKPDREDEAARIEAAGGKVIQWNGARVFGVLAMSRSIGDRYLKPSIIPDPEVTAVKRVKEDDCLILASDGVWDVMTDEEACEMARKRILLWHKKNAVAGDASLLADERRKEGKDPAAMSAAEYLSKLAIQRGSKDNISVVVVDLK
`V70I`: “relative binding score” 101%.
`V40L` — result for “relative binding score”: 16.7%.
`K116A`: “relative binding score” 92.7%.
`E67G`: “relative binding score” 101%.
`T101N`: “relative binding score” 58.9%.
`K58P` — result for “relative binding score”: 29.9%.
Under “relative binding score”, `R45Q` is recorded as 72.4%.
`F66W` — result for “relative binding score”: 100%.
For `G107L`, “relative binding score” read 54.9%.
`S63I` — result for “relative binding score”: 105%.
For `F15T`, “relative binding score” read 70.9%.
`Y141K` — result for “relative binding score”: -16.5%.
`F15Y` — result for “relative binding score”: 97.4%.
`E131A`: “relative binding score” 111%.
`Q167M` — result for “relative binding score”: 96.3%.
For `R49P`, “relative binding score” read -15.5%.
For `T106Y`, “relative binding score” read 106%.
`G71Q` — result for “relative binding score”: 62.4%.
`I105G` — result for “relative binding score”: 31.9%.
`D153V`: “relative binding score” 29.8%.
`S80R` — result for “relative binding score”: 70.8%.

Set 4
Target: Ras GTPase-activating protein-binding protein 1, full length (G3BP1, Homo sapiens, UniProt Q13283)
Chain of UniProt Q13283 (whole entry, looked up): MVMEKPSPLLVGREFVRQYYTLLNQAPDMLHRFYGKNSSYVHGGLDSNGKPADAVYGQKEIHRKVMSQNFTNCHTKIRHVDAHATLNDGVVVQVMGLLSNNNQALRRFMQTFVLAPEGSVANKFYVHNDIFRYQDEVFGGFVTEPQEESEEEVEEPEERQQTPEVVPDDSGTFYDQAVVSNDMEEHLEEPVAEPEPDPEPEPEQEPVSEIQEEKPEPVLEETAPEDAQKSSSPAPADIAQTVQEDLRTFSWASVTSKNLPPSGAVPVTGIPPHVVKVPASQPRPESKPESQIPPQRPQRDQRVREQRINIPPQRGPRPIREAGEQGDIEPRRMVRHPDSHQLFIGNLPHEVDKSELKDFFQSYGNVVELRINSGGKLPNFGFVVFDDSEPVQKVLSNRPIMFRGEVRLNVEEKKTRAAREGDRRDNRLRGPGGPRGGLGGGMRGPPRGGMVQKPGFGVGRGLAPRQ
Method: RNA Bind-n-Seq
Form: RNA
Medium: in vitro
Concentration: 200 nM
Setting: whole 134-nt RNA, ends assumed
Added: 150 mM LiCl
Reference: input library
Direction: higher = stronger binding
All molecules: 7-deaza-guanosine replaces G
All sequences stand within: GGGAGUUCUACAGUCCGACGAUC … UGGAAUUCUCGGGUGUCAAGG
`UGGCCCUGGUGGCAUGCGGGGAGGAAGAGGUGGCCUCAUGGAUCGUGGUGGUCCCGGUGGAAUGUUGAGAGGUGGCCGUGGUGGAGACAG` has a log2 enrichment of 0.182.
The log2 enrichment of `GUCCUGUGCUACACAUCGUAUGUACCGAAUCGGGUUUUUUUGGGAAAAAGGGAAAGGGAAAGUAUUAUGUUACGCCGUUCGGAUCUGCAC` is reported as -1.58.
The log2 enrichment of `CAAGUCCUGUGCUACACAUCGUAUGUACCGAAUCGGGGUUUGGGUUUGGGUUUGGGAAAGUAUUAUGUUACGCCGUUCGGAUCUGCACUU` is reported as -0.68.
For `GCAGGAAGUAAAAGCAAAUGGAAAUGCUUCGGAUAGUGGCAGGGGUGGGGGUUGCUAAGGAAAGGGUGGGAUGGGAGUGGGUAAAGAGUU`, the log2 enrichment was 0.2.
For `UUCAUGAGGACCUCCGCCUGCUCUUGGAGACCCACCUGCCGUCCAAAAAGAAGAAAGUACUCUUGGGAGUUGGGGAUCCCAAGAUUGGUG`, the log2 enrichment was -0.214.
For `UGGCCCGGGUGGCAUGCGGGGAGGAAGAGGUGGCCUCAUGGAUCGUGGUGGUCCCGGUGGAAUGUUCAGAGGUGGCCGUGGUGGAGACAG`, the log2 enrichment was 0.022.
`CACAGACAACACGCACCCACACAGACACAGAGGGAAGGGGUUGGGAUGGGGACAGGGUGCACAGCCGGGCGGGGUAGGACCCCAGCCCCU` has a log2 enrichment of -1.6.
For `AGUCCUGUGCUACACAUCGUAUGUACCGAAUCGGGUUUGGGUUUUUGGGUUUUUGGGAAAGUAUUAUGUUACGCCGUUCGGAUCUGCACU`, the log2 enrichment was -0.674.
The log2 enrichment of `UUGUAUUAAGACAACGCUCCUCGACUUAGAUGCCUUGGCAAGACAUUUGGCUGACUGUAUUCGAAGGUAAAAUUUGAUGUGAAAUUGACA` is reported as 0.00775.
`UCCUGUGCUACACAUCGUAUGUACCGAAUCGGUUUUUUUGGUUUUUUUGGGUUUUUUUGGAAAGUAUUAUGUUACGCCGUUCGGAUCUGC` gave a log2 enrichment of -0.0446.
`UUCCCUCUGUUUUAUUUUUCCCCCGUGUGUCCCUACUAUGGUCAGAAAGCCUGUUGUGUCCACCAUCUCCAAAGGAGGUUACCUGCAGGG` gave a log2 enrichment of 0.634.

Set 5
Target: RNA binding protein fox-1 homolog 2, RRM domain, GST-SBP tag (RBFOX2, Homo sapiens, UniProt O43251-10, residues 100-194)
Method: RNA Bind-n-Seq
Form: RNA
Medium: in vitro
Concentration: 365 nM
Setting: natural RNA segment, single round, ends assumed
Reference: no-protein control
Direction: higher = stronger binding
All sequences stand within: GGGAGUUCUACAGUCCGACGAUC … UGGAAUUCUCGGGUGCCAA
Residues (chain): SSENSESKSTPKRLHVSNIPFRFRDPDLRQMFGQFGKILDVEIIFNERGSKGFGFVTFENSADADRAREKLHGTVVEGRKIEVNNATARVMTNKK
`GAUCUUCGGAUCGGCCACCCUCGCCCCUCGCACCCCAGCCCAGGGCGGCGGGGACUCCGAGAGCCCCGGAGAGAACGUGGCCCAGCCCUGGAGGGCAGGCGGCCACUCCC`: “RBNS enrichment (R)” 0.186.
`UCAAGAGAAUCUCUGCUGGCUACCCCAGGACUUCUCAUUAUAGAUUUCCUGGAGCACGCAGCAGAAACUUUGCCUAGCCCAGUGGUUGUUUCCAUUAUCUGCUGCCAAAG`: “RBNS enrichment (R)” 0.228.
For `UCUCUAUUCUAUCCUGGGUCUGCCUCAACCGUGAGAUAGGAGAGUCUCUGGUACUAGCUGCUGUAGCAGUGCCCUUCAUCCAGGGCAGUUAAUGGAGUCUUGGACCCUUU`, “RBNS enrichment (R)” read 0.456.
For `GCACUCUAUUCCCCCAGCCUCUUUCUGCUUUCAUGCUCAGCACAUCAUCUUCCUAGGCAGUCUCUUCCCCAAAGUCUCACCUUUUCUUCCAAUAGAAAAUUCCGCUUGAC`, “RBNS enrichment (R)” read 2.48.
Under “RBNS enrichment (R)”, `UCUGCAUUUAGAUAACUAUUAAAGGUUGUUAAGAUGAAGAUUUACUGUUUCUUUGUUACUCGUUGGUACAGCUGUUUGUUUUACUUGCACAUUUGUACAUAUACUUAAUG` is recorded as 0.329.
For `UUUUGUAAUCAUUCUCUAAUCCCACUCUGAGUGUCCCGUGACCCUGCAUAAUAAAGCAAUCACUUUCGUUUGCUGGUGCUUAUUCUGAAUAAAAGUCUUGAUUGCAUGAG`, “RBNS enrichment (R)” read 2.92.
`AUACAAGCCAAAGUGGCAUGUUUUGUGCAUUUGUAAAUGCUGUGUUGGGUAGAAUAGGUUUUCCCCUCUUUUGUUAAAUAAUAUGGCUAUGCUUAAAAGGUUGCAUACUG`: “RBNS enrichment (R)” 1.02.
Under “RBNS enrichment (R)”, `UCACCUUGCUUCUGGGUUGUGUUUCUUCUCUUACUACCUCACUGCACCUGGACACUAGAGUGGAUGAAUGUCUGGAGUUCACCUGCAUUUGGACUGUGUGAUUGUGCCUC` is recorded as 4.57.
Under “RBNS enrichment (R)”, `UGAUGCUGAAACCAUGCUGGACUGCCCCAGGCUAAGGCAGGACUGUCUGUGCAAGGCACUACAGCUAUUCACGUGGAGUUACCGCUGCAUUUUCAAAGGUCGGAGAUCUU` is recorded as 0.406.
`UACAGAACCAGCACUCCCAGGGCCCGAGCGCGUGCCUUCCCCGUGCGGCCCGUGCGCAGCCGCGCUCUGCCCCUCCGUCCCCAGGGUGCAGGCGCGCACCGCCCAACCCC`: “RBNS enrichment (R)” 0.312.
`CAGCACCCAACACCUGCACUGGGCCACAAGCGGGAAAGAACACGGGUUGGUUGCAGUUGAGUUGUUGUCUGGCCGUCUGUAUUUGGAUCUUUAACUGUACUUUGCCUGGC`: “RBNS enrichment (R)” 0.913.
For `UGAAAAAUGGGGAAAACUGCUAAACAUCCCAGAGAUUUGCAAUCUUCUAGCUCUCCAGGUGAGCAGAAAGACCAAAUAUCCAAAUAAAAGCCUGAAAGCCAUUGGUGAUC`, “RBNS enrichment (R)” read 0.356.
